Results gathered from unrelated publications.
Protocols differ between the studies behind these lines. ± gives the spread as reported. Values after ≈ are worked out from the molar mass of the structure shown.

| SMILES | target | test | system | setting | how to read | endpoint | result |
| --- | --- | --- | --- | --- | --- | --- | --- |
| CC(C)C[C@H](NC(=O)[C@H](C)NC(=O)[C@H](CCCCN)NC(=O)CCNC(=S)Nc1ccc2c(c1)C(=O)OC21c2ccc(O)cc2Oc2cc(O)ccc21)C(=O)N[C@@H](CCC(=O)O)C(=O)N[C@H](C(=O)N[C@@H](CC(C)C)C(=O)N[C@@H](CCCNC(=N)N)C(=O)N[C@@H](CCCNC(=N)N)C(=O)N[C@H](C(=O)NCC(=O)N[C@@H](CC(=O)O)C(=O)NCC(=O)N[C@H](C(=O)N[C@@]1(C)CCC/C=C\CCC[C@@](C)(C(=O)N[C@H](C(=O)N[C@@H](C)C(=O)N[C@@H](Cc2ccccc2)C(N)=O)[C@@H](C)O)NC(=O)[C@H](Cc2c[nH]cn2)NC(=O)[C@H](CC(N)=O)NC(=O)[C@H](CCCNC(=N)N)NC1=O)C(C)C)C(C)C)[C@@H](C)O | BAK |  | mouse liver mitochondria | concentration not given, 40 min |  | cytochrome c release | no effect |
| C[C@H](NC(=O)[C@@H]1CCCN1C(=O)[C@H](Cc1ccc(O)cc1)NC(=O)CNC(=O)[C@H](CO)NC(=O)[C@H](Cc1ccccc1)NC(=O)[C@@H](N)[C@@H](C)O)C(=O)N[C@@H](Cc1ccccc1)C(=O)O | rat mu opioid receptor | outward current, agonist, voltage clamp | supraoptic nucleus neurons, Sprague Dawley rat | holding potential -50 mV |  | EC50 | 76.6 nM |
| CCCCCO[C@H]1[C@H](O)[C@@H](N)[C@@H](O[C@H]2[C@H](O[C@@H]3O[C@H](CO)[C@@H](O[C@H]4O[C@@H](CN)[C@@H](O)[C@H](O)[C@H]4N)[C@H]3O)[C@@H](O)[C@H](N)C[C@@H]2N)O[C@@H]1CO | Mycobacterium smegmatis ribosome A1408G | translation, cell-free luciferase synthesis |  |  |  | IC50 | 21.7 ± 5.04 µg/mL (≈ 31.7 µM) |
| C/C=C1/NC(=O)[C@@H](NC(=O)[C@H](CCC(N)=O)NC(=O)[C@@H]2CCCN2C=O)[C@@H](C)OC(=O)[C@H](C(C)C)NC(=O)[C@H](Cc2ccc(O)cc2)N(C)C(=O)[C@H](Cc2ccccc2)N2C(=O)[C@H](CC[C@H]2O)NC1=O | trypsin (pig) | inhibitor |  | 10 µM, 15 min preincubation, pH 7.8, 37 °C, added: BAPNA |  | inhibition | no inhibition |
| CCCCCCCCC(=O)NCc1ccc(O)c(OC)c1 | mAb 6-AT6 | antibody binding, indirect competitive ELISA |  | added: coating antigen 5-OVA |  | IC50 | 0.637 µg/mL (≈ 2.17 µM) |
| O=C1c2ccccc2N(Cc2cccc(Br)c2)C12CCCC2 | acetylcholinesterase |  |  | 10 µM |  | remaining activity | 68.6 ± 2.92% |
| CCO[C@H]1[C@H](O)[C@@H](N)[C@@H](O[C@H]2[C@H](O[C@@H]3O[C@H](CO)[C@@H](O[C@H]4O[C@@H](CN)[C@@H](O)[C@H](O)[C@H]4N)[C@H]3O)[C@@H](O)[C@H](N)C[C@@H]2N)O[C@@H]1CO | ribosome with mitochondrial A1555G A site | luciferase translation, cell-free translation |  |  |  | IC50 | 120 ± 45.6 µg/mL (≈ 186 µM) |
| CC[C@@H]1CN2CCc3c([nH]c4cccc(OC)c34)[C@H]2C[C@@H]1/C(=C\OC)C(=O)OC | rabbit anti-mitragynine polyclonal IgG | competitive indirect ELISA |  | concentration not given | reference: mitragynine | cross-reactivity | 8.18% |
| C=C(C)[C@H]1Cc2c(ccc3c2O[C@@H]2COc4cc(OC)c(OC)cc4[C@@H]2C3=O)O1 | mitochondrial complex I | Seahorse respirometry | MC65 Tet-On | 32 nM |  | inhibition | ~50% |
| NC[C@@H]1O[C@H](O[C@H]2[C@@H](O)[C@H](O[C@@H]3[C@@H](O)[C@H](N)C[C@H](N)[C@H]3O[C@H]3O[C@H](CO)[C@@H](OCCCO)[C@H](O)[C@H]3N)O[C@@H]2CO)[C@H](N)[C@@H](O)[C@@H]1O | Mycobacterium smegmatis ribosome A1408G | translation, cell-free luciferase synthesis |  |  |  | IC50 | 38.1 ± 5.73 µg/mL (≈ 56.6 µM) |
| Cc1c(-c2cccc(C3=NCCN3)c2)oc(-c2cccc(C3=NCCN3)c2)c1C | human telomeric G-quadruplex DNA F21T | G-quadruplex stabilisation, FRET melting |  | 1 µM |  | ΔTm | 22.3 °C |
| O=C1c2ccccc2N(Cc2ccc(F)cc2)C12CCCC2 | acetylcholinesterase |  |  | 10 µM |  | remaining activity | 75.5 ± 3.71% |
| CO[C@H]1[C@H](O)[C@@H](N)[C@@H](O[C@H]2[C@H](O[C@@H]3O[C@H](CO)[C@@H](O[C@H]4O[C@@H](CN)[C@@H](O)[C@H](O)[C@H]4N)[C@H]3O)[C@@H](O)[C@H](N)C[C@@H]2N)O[C@@H]1CO | Mycobacterium smegmatis ribosome A1408G | translation, cell-free luciferase synthesis |  |  |  | IC50 | 14.2 ± 6.74 µg/mL (≈ 22.6 µM) |
| CCCCCCCC/C=C\CCCCCCCC(=O)Oc1cccc(SSC[C@H](N)C(=O)N[C@@H](Cc2ccc(O)cc2)C(=O)NCC(=O)N[C@@H](C)C(=O)N[C@@H](CCCCN)C(N)=O)c1 | calpain, rabbit | enzyme activity | rabbit renal proximal tubule cells | 1 µM, 30 min |  | inhibition | ~20% |
| NC[C@@H]1O[C@H](O[C@H]2[C@@H](O)[C@H](O[C@@H]3[C@@H](O)[C@H](N)C[C@H](N)[C@H]3O[C@H]3O[C@H](CO)[C@@H](OCC(O)CO)[C@H](O)[C@H]3N)O[C@@H]2CO)[C@H](N)[C@@H](O)[C@@H]1O (stereo partly shown) | ribosome with mitochondrial A site | luciferase translation, cell-free translation |  |  |  | IC50 | 31.8 ± 14.2 µg/mL (≈ 46.2 µM) |
| COc1ccc(F)cc1S(=O)(=O)Nc1cnc2c(c1)C(=O)NCCO2 | alkaline phosphatase | inhibitor | cynomolgus monkey | oral, 0.03 to 1.0 mg/kg, up to 4 h | reference: vehicle | plasma ALP activity | decreased |
| O=C1c2cc(F)ccc2NC12CCCC2 | acetylcholinesterase |  |  | 10 µM |  | remaining activity | 80.2 ± 1.17% |
| CCCCO[C@H]1[C@H](O)[C@@H](N)[C@@H](O[C@H]2[C@H](O[C@@H]3O[C@H](CO)[C@@H](O[C@H]4O[C@@H](CN)[C@@H](O)[C@H](O)[C@H]4N)[C@H]3O)[C@@H](O)[C@H](N)C[C@@H]2N)O[C@@H]1CO | ribosome with mitochondrial A1555G A site | luciferase translation, cell-free translation |  |  |  | IC50 | 148 ± 30.6 µg/mL (≈ 221 µM) |
| CC[C@H](C)[C@@H]1NC(=O)[C@H](Cc2ccc(O)cc2)NC(=O)[C@@H](N)CSSC[C@@H](C(=O)N2CCC[C@H]2C(=O)N2CCC[C@H]2C(=O)NCC(N)=O)NC(=O)[C@H](CC(N)=O)NC(=O)[C@H](CCC(N)=O)NC1=O | oxytocin receptor (Callithrix jacchus) | Ca2+ mobilisation, agonist | CHO cells |  |  | EC50 | 0.44 nM |
| CC[C@H](C)[C@H](NC(=O)[C@H](Cc1ccccc1)NC(=O)[C@H](CCC(=O)O)NC(=O)[C@H](CCCCNC(=O)COCC(=O)NCCCOCCOCCOCCCNC(=O)CNC(=O)[C@@H]1CCCN1C(=O)CNC(=O)[C@@H]1CCCN1C(=O)CNC(=O)[C@@H]1CCCN1C(=O)[C@H](CCCCNC(=O)CN(CCN(CCN(CC(=O)O)CC(=O)O)CC(=O)O)CC(=O)O)NC(=O)COCC(=O)NCCCOCCOCCOCCCNC(=O)COCC(=O)NCCOc1ccc(Cl)cc1C(=O)NCCc1ccc(S(=O)(=O)NC(=O)NC2CCCCC2)cc1)NC(=O)[C@H](C)NC(=O)[C@H](C)NC(=O)[C@H](CCC(N)=O)NC(=O)CNC(=O)[C@H](CCC(=O)O)NC(=O)[C@H](CC(C)C)NC(=O)[C@H](Cc1ccc(O)cc1)NC(=O)[C@H](CO)NC(=O)[C@H](CO)NC(=O)[C@@H](NC(=O)[C@H](CC(=O)O)NC(=O)[C@H](CO)NC(=O)[C@@H](NC(=O)[C@H](Cc1ccccc1)NC(=O)[C@@H](NC(=O)CNC(=O)[C@H](CCC(=O)O)NC(=O)[C@H](C)NC(=O)[C@@H](N)Cc1c[nH]cn1)[C@@H](C)O)[C@@H](C)O)C(C)C)C(=O)N[C@@H](C)C(=O)N[C@@H](Cc1c[nH]c2ccccc12)C(=O)N[C@@H](CC(C)C)C(=O)N[C@H](C(=O)N[C@@H](CCCNC(=N)N)C(=O)NCC(=O)N[C@@H](CCCNC(=N)N)C(=O)NCC(N)=O)C(C)C | GLP-1R and SUR1 | saturation binding, time-resolved fluorescence | βTC3 |  | reference: bivalent over best monovalent element | affinity shift | ~3 fold |
| CCCO[C@H]1[C@H](O)[C@@H](N)[C@@H](O[C@H]2[C@H](O[C@@H]3O[C@H](CO)[C@@H](O[C@H]4O[C@@H](CN)[C@@H](O)[C@H](O)[C@H]4N)[C@H]3O)[C@@H](O)[C@H](N)C[C@@H]2N)O[C@@H]1CO | Mycobacterium smegmatis ribosome A1408G | translation, cell-free luciferase synthesis |  |  |  | IC50 | 11.7 ± 4.94 µg/mL (≈ 17.8 µM) |
| Cc1cn(C2CCC(OC(C(=O)O)P(=O)(O)O)C2)c(=O)[nH]c1=O (racemic) | HIV-1 reverse transcriptase M184I/E138K | enzyme activity, inhibitor |  | added: poly(rA)·dT, [3H]dTTP | reference: mutant over wild type | fold resistance | 16 fold |
| O=C1c2ccccc2N(Cc2ccccc2)C12CCCC2 | acetylcholinesterase |  |  | 10 µM |  | remaining activity | 68.31 ± 0.51% |
| CN1C(=O)C2(Cc3ccc(CC45SSC(CO)(C(=O)N4C)N(C)C5=O)cc3)SSC1(CO)C(=O)N2C (racemic) | HIF-1α | reporter gene, HRE luciferase reporter | MDA-MB-231-HRE-Luc | 600 nM, added: deferoxamine 300 µM, hypoxia |  | inhibition | 94% |
| C=CCO[C@H]1[C@H](O)[C@@H](N)[C@@H](O[C@H]2[C@H](O[C@@H]3O[C@H](CO)[C@@H](O[C@H]4O[C@@H](CN)[C@@H](O)[C@H](O)[C@H]4N)[C@H]3O)[C@@H](O)[C@H](N)C[C@@H]2N)O[C@@H]1CO | ribosome with mitochondrial A site | luciferase translation, cell-free translation |  |  |  | IC50 | 102 ± 9.99 µg/mL (≈ 156 µM) |
